Assay results from different studies.
Each line is one published result; not all experiments were run side by side. Values joined by “and” are separate records of one study, mostly repeats; a detail may differ.
Target: Delta-type opioid receptor (OPRD1, Homo sapiens, UniProt P41143)

CCc1nnc(-c2c(OC)cc(-c3cnc4cc(-c5cnn(C)c5)ccn34)cc2OC)o1 — specific binding (agonist, radioligand binding; 10 µM; reference: control): 93.9%
C[C@H](NCc1ccc(-c2ccc(C(F)(F)F)cc2)cc1)C(N)=O — inhibition (radioligand binding, SafetyScreen panel; 1 µM, species human, together with: 1.30 nM [3H]Naltrindole): 7%
COc1ccc(F)cc1S(=O)(=O)Nc1cnc2c(c1)C(=O)NCCO2 — inhibition (ligand displacement, radioligand; 10 µM): 0%
CN(C)[C@H](CNC(=O)/C=C/c1cccc2ccccc12)Cc1ccc(O)cc1 — selectivity ratio (reference: delta over mu receptor): 12
CN[C@@H]1[C@H](O)[C@H](NC)[C@H]2O[C@]3(O)[C@H](O[C@@H]2[C@H]1O)O[C@H](C)C[C@H]3NC(=O)Cc1ccc(Cl)cn1 — inhibition (ligand displacement, radioligand; 10 µM): 12%
Cc1cc(Nc2nc(C[C@@]3(C(=O)O)CCN(Cc4cccc(Cl)c4F)[C@H](C)C3)cc(C)c2F)[nH]n1 — activation (agonist; 10 µM): -0.33%
Cc1cc(-c2ccc3ccccc3c2)nnc1NCCN1CCN(C)CC1 — antagonist activity (antagonist; concentration not given): negative
C/C(=N\OCCCN1CCCCC1)c1ccc(C(F)(F)F)cc1 — inhibition (antagonist, cAMP; 10 µM): 9.08%
O=C(Cc1ccc(Cl)c(Cl)c1)N1CCNC2COCC(N3CCCC3)C21 (stereo not shown) — inhibition (binding; up to 20 µM, together with: [3H]DPDPE): ≤ 50%
Cc1sc2c(c1C)C(c1ccc(Cl)cc1)=NC(CC(=O)OC(C)(C)C)c1nnc(C)n1-2 (stereo not shown) — remaining binding (ligand displacement, radioligand; 1 µM): 106%
O=C(O)c1ccc(-c2nc(-c3ccccc3Cl)c3sccn23)cc1 — binding vs control (ligand displacement; 10 µM): 19.4% and 16.5%
CCN(CC)CCOc1ccc(-c2nnn(Cc3ccc(OC)cc3)c2N)cc1 — inhibition (radioligand binding; HEK293; 10 µM, safety profiling): 4.32%
CN1CCC23c4c5ccc(O)c4CC2C(O)C=CC3C1C5 (racemic) — Emax (receptor activation, agonist, cell-based): < 10%
